# Assay results of several laboratories.
# Each line is one published result; not all experiments were run side by side. Values joined by “and” are separate records of one study, mostly repeats; a detail may differ.
# U2AF2: U2AF2 148-342 (Homo sapiens, UniProt P26368)
# Sequence of UniProt P26368 (whole entry, looked up): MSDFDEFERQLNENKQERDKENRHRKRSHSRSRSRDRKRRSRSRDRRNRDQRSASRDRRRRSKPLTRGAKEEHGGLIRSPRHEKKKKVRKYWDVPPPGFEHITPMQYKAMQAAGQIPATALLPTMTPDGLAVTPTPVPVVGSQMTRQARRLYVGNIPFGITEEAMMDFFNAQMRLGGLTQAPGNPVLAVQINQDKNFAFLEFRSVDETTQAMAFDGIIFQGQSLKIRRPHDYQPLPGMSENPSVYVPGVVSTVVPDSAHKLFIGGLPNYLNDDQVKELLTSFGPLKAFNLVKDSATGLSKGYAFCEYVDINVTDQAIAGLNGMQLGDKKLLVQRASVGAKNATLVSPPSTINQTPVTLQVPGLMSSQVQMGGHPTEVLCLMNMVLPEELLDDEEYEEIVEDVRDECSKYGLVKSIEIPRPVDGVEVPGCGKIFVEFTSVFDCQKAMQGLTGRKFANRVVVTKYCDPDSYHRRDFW
# B1: RB1CC1 1490-1594 (Homo sapiens, UniProt Q8TDY2); chain SRHSEKIAIRDFQVGDLVLIILDERHDNYVLFTVSPTLYFLHSESLPALDLKPGEGASGASRRPWVLGKVMEKEYCQAKKAQNRFKVPLGTKFYRVKAVSWNKKV
# B2: Saro_1862 1-406 (Novosphingobium aromaticivorans, UniProt Q2G771); chain MTDKPSVLFICTQDTEEEEARFTRAALEAAGVEVVHLDPSVRRSLGGAEISPEMVAQAGGMTIEEVRALGHEGKCQDAMIRGAIAAAHEWDARHPVSGILAVGGSMGSALAGALMQSFPYGLPKLIVSTMASGFTKPYMGVKDIAMMNAVTDISGINTISRDVFRNAANAVAGMAKGYDRDKGPEKPLVLITTLGTTETSVKRIRQALESDGCEVMVFHSSGAGGPTLDGLAADKDVALVLDLSPTEILDHLFGGLADAGPDRGRAALRKGIPTILAPGNADFIIGGPIDAAEAQFPGRRYHQHNPQLTAVRTNVADLRKLADHLAANVREAKGPVRVFTPLKGFSSHDSETGHLLDLSVPGPFAEYLASVMPGHVPVTAVDAHFNDEAFSSAVIAAAREMLAAKN
# B3: tebp-2 (Caenorhabditis elegans, UniProt Q22429); sequence looked up; chain MSTRAKKNKPSEPSFDDELLIWEFIYENTCNMQLFDDVNLDLFKQYLQEHESVFTAEQLYEFYVTRMKATLYKCELEPRKMLTLYKNLEIEMNQHVETLLEARFKTVLRVDSNRCLQKFSEFSAPETIPETLEETVPATAPEPERSRKLVNRMPLDVEISDSFEKLIWNHVYLNADRLTGKIVMAEEFWDQLLQSQPNIPIKSAYIVLHHFNIKMLENLWKQPMDPYAKARLIRDLAVPLSLRQRKWMLDNDRLNLKLSLNGFVEDWDIVP
# B4: Ikbkg 1-355 C54S/K285N (Mus musculus, UniProt O88522); sequence looked up; chain MNKHPWKNQLSEMVQPSGGPAEDQDMLGEESSLGKPAMLHLPSEQGTPETLQRSLEENQELRDAIRQSNQMLRERCEELLHFQVSQREEKEFLMCKFQEARKLVERLSLEKLDLRSQREQALKELEQLKKCQQQMAEDKASVKAQVTSLLGELQESQSRLEAATKDRQALEGRIRAVSEQVRQLESEREVLQQQHSVQVDQLRMQNQSVEAALRMERQAASEEKRKLAQLQAAYHQLFQDYDSHIKSSKGMQLEDLRQQLQQAEEALVAKQELIDKLKEEAEQHNIVMETVPVLKAQADIYKADFQAERHAREKLVEKKEYLQEQLEQLQREFNKLKVGCHESARIEDMRKRHVE
# B5: fesII 1-122 (Azotobacter vinelandii, UniProt Q44501); chain MATIYFSSPLMPHNKKVQAVAGKRSTLLGVAQENGVKIPFECQDGNCGSCLVKITHLDGERIKGMLLTDKERNVLKSVGKLPKSEEERAAVRDLPPTYRLACQTIVTDEDLLVEFTGEPGGA
# B6: cfbA 1-143 S11M (Methanocaldococcus jannaschii, UniProt Q58380); chain MEALVLVGHGMRLPYSKELLVKLAEKVKERNLFPIVEIGLMEFSEPTIPQAVKKAIEQGAKRIIVVPVFLAHGIHTTRDIPRLLGLIEDNHEHHHEHSHHHHHHHHHEHEKLEIPEDVEIIYREPIGADDRIVDIIIDRAFGR
# B7: SH3GL2 G276V (Homo sapiens, UniProt Q99962); sequence looked up; chain MSVAGLKKQFHKATQKVSEKVGGAEGTKLDDDFKEMERKVDVTSRAVMEIMTKTIEYLQPNPASRAKLSMINTMSKIRGQEKGPGYPQAEALLAEAMLKFGRELGDDCNFGPALGEVGEAMRELSEVKDSLDIEVKQNFIDPLQNLHDKDLREIQHHLKKLEGRRLDFDYKKKRQGKIPDEELRQALEKFDESKEIAESSMFNLLEMDIEQVSQLSALVQAQLEYHKQAVQILQQVTVRLEERIRQASSQPRREYQPKPRMSLEFPTGDSTQPNGVLSHTGTPKPSGVQMDQPCCRALYDFEPENEGELGFKEGDIITLTNQIDENWYEGMLHGHSGFFPINYVEILVALPH
# B8: POL30 1-258 (Saccharomyces cerevisiae, UniProt P15873); chain MLEAKFEEASLFKRIIDGFKDCVQLVNFQCKEDGIIAQAVDDSRVLLVSLEIGVEAFQEYRCDHPVTLGMDLTSLSKILRCGNNTDTLTLIADNTPDSIILLFEDTKKDRIAEYSLKLMDIDADFLKIEELQYDSTLSLPSSEFSKIVRDLSQLSDSINIMITKETIKFVADGDIGSGSVIIKPFVDMEHPETSIKLEMDQPVDLTFGAKYLLDIIKGSSLSDRVGIRLSSEAPALFQFDLKSGFLQFFLAPKFNDEE
# B9: TGFBI FAS1-4 domain, residues 502-657 R555Q (Homo sapiens, UniProt Q15582); chain AGMGTVMDVLKGDNRFSMLVAAIQSAGLTETLNREGVYTVFAPTNEAFRALPPREQSRLLGDAKELANILKYHIGDEILVSGGIGALVRLKSLQGDKLEVSLKNNVVSVNKEPVAEPDIMATNGVVHVITNVLQPPANRPQERGDELADSALEIFKQA
# B10: comFB 1-98 (Bacillus subtilis, UniProt P39146); chain MLVNSKEIVMKELLDRYMDQLHMACTCQVCQNDVLALSLNKVSPSYVTDFKKIAYTKAELVDKQKNTAMLVILAESAAVVSESPSDLCQTKQEEAFIN
# B11: S100P (Homo sapiens, UniProt P25815); sequence looked up; chain MTELETAMGMIIDVFSRYSGSEGSTQTLTKGELKVLMEKELPGFLQSGKDKDAVDKLLKDLDANGDAQVDFSEFIVFVAAITSACHKYFEKAGLK
# B12: PCK1 S62D/T66E (Arabidopsis thaliana, UniProt Q9T074); sequence looked up; chain MSAGNGNATNGDGGFSFPKGPVMPKITTGAAKRGSGVCHDDSGPTVNATTIDELHSLQKKRDAPTEPINQNAAAAFAAVSEEERQKIQLQSISASLASLTRESGPKVVRGDPAEKKTDGSTTPAYAHGQHHSIFSPATGAVSDSSLKFTHVLYNLSPAELYEQAIKYEKGSFITSNGALATLSGAKTGRAPRDKRVVRDATTEDELWWGKGSPNIEMDEHTFMVNRERAVDYLNSLEKVFVNDQYLNWDPENRIKVRIVSARAYHSLFMHNMCIRPTQEELESFGTPDFTIYNAGQFPCNRYTHYMTSSTSVDLNLARREMVILGTQYAGEMKKGLFSVMHYLMPKRRILSLHSGCNMGKDGDVALFFGLSGTGKTTLSTDHNRYLIGDDEHCWTETGVSNIEGGCYAKCVDLSREKEPDIWNAIKFGTVLENVVFDEHTREVDYSDKSVTENTRAAYPIEFIPNAKIPCVGPHPTNVILLACDAFGVLPPVSKLNLAQTMYHFISGYTALVAGTEDGIKEPTATFSACFGAAFIMLHPTKYAAMLAEKMKSQGATGWLVNTGWSGGSYGVGNRIKLAYTRKIIDAIHSGSLLKANYKKTEIFGFEIPTEIEGIPSEILDPVNSWSDKKAHKDTLVKLGGLFKKNFEVFANHKIGVDGKLTEEILAAGPIF
# B13: ADAR1 127-end 127-1226 I872T (human, UniProt P55265); sequence looked up; chain SSHFQELSIYQDQEQRILKFLEELGEGKATTAHDLSGKLGTPKKEINRVLYSLAKKGKLQKEAGTPPLWKIAVSTQAWNQHSGVVRPDGHSQGAPNSDPSLEPEDRNSTSVSEDLLEPFIAVSAQAWNQHSGVVRPDSHSQGSPNSDPGLEPEDSNSTSALEDPLEFLDMAEIKEKICDYLFNVSDSSALNLAKNIGLTKARDINAVLIDMERQGDVYRQGTTPPIWHLTDKKRERMQIKRNTNSVPETAPAAIPETKRNAEFLTCNIPTSNASNNMVTTEKVENGQEPVIKLENRQEARPEPARLKPPVHYNGPSKAGYVDFENGQWATDDIPDDLNSIRAAPGEFRAIMEMPSFYSHGLPRCSPYKKLTECQLKNPISGLLEYAQFASQTCEFNMIEQSGPPHEPRFKFQVVINGREFPPAEAGSKKVAKQDAAMKAMTILLEEAKAKDSGKSEESSHYSTEKESEKTAESQTPTPSATSFFSGKSPVTTLLECMHKLGNSCEFRLLSKEGPAHEPKFQYCVAVGAQTFPSVSAPSKKVAKQMAAEEAMKALHGEATNSMASDNQPEGMISESLDNLESMMPNKVRKIGELVRYLNTNPVGGLLEYARSHGFAAEFKLVDQSGPPHEPKFVYQAKVGGRWFPAVCAHSKKQGKQEAADAALRVLIGENEKAERMGFTEVTPVTGASLRRTMLLLSRSPEAQPKTLPLTGSTFHDQIAMLSHRCFNTLTNSFQPSLLGRKILAATIMKKDSEDMGVVVSLGTGNRCVKGDSLSLKGETVNDCHAEIISRRGFIRFLYSELMKYNSQTAKDSIFEPAKGGEKLQIKKTVSFHLYISTAPCGDGALFDKSCSDRAMESTESRHYPVFENPKQGKLRTKVENGEGTIPVESSDIVPTWDGIRLGERLRTMSCSDKILRWNVLGLQGALLTHFLQPIYLKSVTLGYLFSQGHLTRAICCRVTRDGSAFEDGLRHPFIVNHPKVGRVSIYDSKRQSGKTKETSVNWCLADGYDLEILDGTRGTVDGPRNELSRVSKKNIFLLFKKLCSFRYRRDLLRLSYGEAKKAARDYETAKNYFKKGLKDMGYGNWISKPQEEKNFYLCPV
# Sequence of UniProt P14712 (whole entry, looked up): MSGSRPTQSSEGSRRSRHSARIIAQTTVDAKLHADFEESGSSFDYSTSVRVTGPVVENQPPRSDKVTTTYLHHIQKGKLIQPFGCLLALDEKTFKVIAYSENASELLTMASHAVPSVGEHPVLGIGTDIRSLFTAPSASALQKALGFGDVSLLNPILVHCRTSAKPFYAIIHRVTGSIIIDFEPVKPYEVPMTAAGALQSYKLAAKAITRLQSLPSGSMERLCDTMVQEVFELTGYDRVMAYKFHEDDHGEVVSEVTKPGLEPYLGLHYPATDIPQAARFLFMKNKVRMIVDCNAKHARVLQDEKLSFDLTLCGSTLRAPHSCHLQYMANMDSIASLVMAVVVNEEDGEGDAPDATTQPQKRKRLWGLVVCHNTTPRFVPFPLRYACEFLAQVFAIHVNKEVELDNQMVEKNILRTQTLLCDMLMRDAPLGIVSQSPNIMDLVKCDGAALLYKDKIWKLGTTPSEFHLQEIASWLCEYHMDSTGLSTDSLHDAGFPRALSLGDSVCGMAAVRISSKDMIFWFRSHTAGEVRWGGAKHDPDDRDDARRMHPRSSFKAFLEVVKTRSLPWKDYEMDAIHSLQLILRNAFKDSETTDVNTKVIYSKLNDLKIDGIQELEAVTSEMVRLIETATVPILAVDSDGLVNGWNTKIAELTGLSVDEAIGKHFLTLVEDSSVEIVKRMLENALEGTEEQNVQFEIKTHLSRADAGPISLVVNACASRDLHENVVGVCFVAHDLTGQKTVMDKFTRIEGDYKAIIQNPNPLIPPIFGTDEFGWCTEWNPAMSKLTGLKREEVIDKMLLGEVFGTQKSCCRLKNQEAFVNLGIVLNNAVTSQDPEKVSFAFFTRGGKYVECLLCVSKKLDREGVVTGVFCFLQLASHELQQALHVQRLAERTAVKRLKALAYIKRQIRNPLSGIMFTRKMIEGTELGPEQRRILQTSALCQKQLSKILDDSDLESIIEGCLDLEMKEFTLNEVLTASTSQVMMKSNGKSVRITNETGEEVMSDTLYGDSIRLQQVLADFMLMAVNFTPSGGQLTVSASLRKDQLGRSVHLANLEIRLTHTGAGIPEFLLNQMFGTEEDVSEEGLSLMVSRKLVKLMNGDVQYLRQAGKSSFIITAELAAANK
# Sequence of UniProt P48547 (whole entry, looked up): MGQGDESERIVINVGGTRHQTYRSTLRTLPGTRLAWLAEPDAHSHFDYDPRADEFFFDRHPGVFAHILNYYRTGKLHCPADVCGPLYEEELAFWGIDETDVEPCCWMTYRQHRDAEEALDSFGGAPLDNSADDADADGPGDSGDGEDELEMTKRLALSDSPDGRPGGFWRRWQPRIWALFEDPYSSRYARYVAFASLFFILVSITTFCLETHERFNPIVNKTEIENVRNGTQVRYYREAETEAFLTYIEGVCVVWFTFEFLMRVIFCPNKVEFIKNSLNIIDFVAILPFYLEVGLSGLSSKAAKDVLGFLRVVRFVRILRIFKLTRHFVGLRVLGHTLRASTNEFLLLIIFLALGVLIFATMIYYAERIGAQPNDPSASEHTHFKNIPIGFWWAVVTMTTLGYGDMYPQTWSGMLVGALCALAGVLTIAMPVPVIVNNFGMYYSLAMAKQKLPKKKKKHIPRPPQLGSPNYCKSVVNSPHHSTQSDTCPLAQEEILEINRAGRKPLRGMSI
Molecule,tested on,method,form,notes,quantity,value
B1 (RB1CC1 1490-1594),itself,X-ray crystallography,,,subunits per oligomer,2
APVDSMLKDMATIILSTFLLIGWVAFIITYPLSMH (IRE1α 435-469),itself,SDS-PAGE,peptide,,subunits per oligomer,4
UAUCUUGUA (ssRNA),U2AF2,sequencing of bound RNA,RNA,motif only,Kd,12.5 µM
B2 (Saro_1862 1-406),itself,SEC,,,subunits per oligomer,2
B3 (tebp-2),itself,SEC-MALS,,,subunits per oligomer,2
B4 (Ikbkg 1-355 C54S/K285N),itself,SEC-MALS,,,subunits per oligomer,2
B5 (fesII 1-122),itself,AUC,,,subunits per oligomer,2
B6 (cfbA 1-143 S11M),itself,SEC,,,subunits per oligomer,2
UAGCUCUGC (ssRNA),U2AF2,sequencing of bound RNA,RNA,motif only,Kd,10.4 µM
"KCNC1 (Homo sapiens, UniProt P48547)",itself,cryo-EM,,,subunits per oligomer,4
EWEALEKKLAALESKCQALEKKLQALEKKLEALEHG (designed peptide; D-Leu12/N-acetyl/C-amide),itself,crystal structure,peptide,,subunits per oligomer,3
B7 (SH3GL2 G276V),itself,SEC-SAXS,,,subunits per oligomer,2
B8 (POL30 1-258),itself,native gel,,,subunits per oligomer,3
B9,itself,cross-linking,,,subunits per oligomer,2
B10 (comFB 1-98),itself,SEC-MALS,,,subunits per oligomer,2
B11 (S100P),itself,AUC,,,subunits per oligomer,2
B12 (PCK1 S62D/T66E),itself,SEC,,,subunits per oligomer,6 and 12
"PHYA, phytochromobilin thioether linked (Arabidopsis thaliana, UniProt P14712)",itself,SEC,,,subunits per oligomer,2
B13 (ADAR1 127-end 127-1226 I872T),itself,SEC,,,subunits per oligomer,2

# A few entries again:
Molecule,tested on,method,form,notes,quantity,value
B5 (fesII 1-122),itself,AUC,,,subunits per oligomer,2
B13 (ADAR1 127-end 127-1226 I872T),itself,SEC,,,subunits per oligomer,2
